Measured values gathered from unrelated publications.
Values joined by “and” are separate records of one study, mostly repeats; a detail may differ. Numbers after ± are the reported error.

| SMILES | test | system | setting | how to read | endpoint | value |
| --- | --- | --- | --- | --- | --- | --- |
| O=C(NC1CCC(F)(F)CC1)C(c1cncnc1)N(C(=O)C(F)Cl)c1ccc(OC(F)(F)F)cc1 (centres unmarked) |  | human liver microsomes | concentration not given, 0.5 h, pH 7.4 |  | remaining compound | 98.3% |
| CN(Cc1cc(C2CC2)on1)C(=O)c1cccc(-c2ccc(F)cc2)c1 |  | human liver microsomes | 2 µM, 30 min, pH 7.5, added: 1-aminobenzotriazole 500 µM, preincubated 30 min |  | remaining compound | 89.2% |
| CC[C@H](C)[C@@H](C(=O)N[C@@H](CC(C)C)C(=O)N[C@@H](CO)C(=O)N[C@@H](CO)C(=O)N[C@H](C(=O)N[C@@H](CCC(=O)O)C(=O)N[C@H](C(=O)NCC(=O)N[C@@H](CO)C(=O)NCC(=O)N[C@H](C(=O)N1C[C@H](O)C[C@H]1C(N)=O)[C@@H](C)O)C(C)C)[C@@H](C)O)N(C)C(=O)[C@H](C)NC(=O)CN(C)C(=O)[C@H](Cc1ccccc1)NC(=O)[C@H](CO)NC(=O)[C@H](CO)NC(=O)[C@H](CCCNC(=N)N)NC(=O)[C@@H](NC(=O)[C@H](CC(C)C)NC(=O)[C@H](Cc1ccccc1)NC(=O)[C@H](Cc1c[nH]cn1)NC(=O)[C@H](C)NC(=O)[C@H](CC(C)C)NC(=O)[C@H](CCCNC(=N)N)NC(=O)[C@H](CCC(=O)O)NC(=O)[C@@H](NC(=O)[C@H](C)NC(=O)[C@@H]1CSSC[C@H](NC(=O)[C@H](CCCNC(=N)N)NC(=O)CC[C@H](NC(=O)CCCCCCCCCCCCCCCCCCC(=O)O)C(=O)O)C(=O)NCC(=O)N[C@@H]([C@@H](C)O)C(=O)N[C@@H](C)C(=O)N[C@@H]([C@@H](C)O)C(=O)N1)[C@@H](C)O)[C@@H](C)O | RP-HPLC | water | 7 days, pH 6.0, 40 °C |  | remaining main peak | 94 area % |
| Cc1ccc(C(C)C)cc1.O=C(N=P(c1ccccc1)(c1ccccc1)c1ccccc1)c1[c-]cccc1.[Cl-].[Ru+2] |  | DMSO-d6 | 1 month |  | remaining intact compound | 0% |
| CC(C)(C)[C@H](NC(=O)c1ccc(Oc2ccc(C(=O)N[C@H]3CCCC[C@@H]3O)cc2)cc1)C(=O)NCCN1CCCC1 |  | human liver microsomes | 1 µM, 30 min, pH 7.4 |  | remaining compound | 86.2% |
| CC[C@H](C)[C@@H](C(=O)N[C@@H](CC(C)C)C(=O)N[C@@H](CO)C(=O)N[C@@H](CO)C(=O)N[C@H](C(=O)N[C@@H](CCC(=O)O)C(=O)N[C@H](C(=O)NCC(=O)N[C@@H](CO)C(=O)N[C@@H](CC(N)=O)C(=O)N[C@H](C(=O)N1C[C@H](O)C[C@H]1C(N)=O)[C@@H](C)O)C(C)C)[C@@H](C)O)N(C)C(=O)[C@H](C)NC(=O)CN(C)C(=O)[C@H](Cc1ccccc1)NC(=O)[C@H](CO)NC(=O)[C@H](CO)NC(=O)[C@H](CCCNC(=N)N)NC(=O)[C@H](CCC(N)=O)NC(=O)[C@H](CC(C)C)NC(=O)[C@H](Cc1ccccc1)NC(=O)[C@H](Cc1c[nH]cn1)NC(=O)[C@H](C)NC(=O)[C@H](CC(C)C)NC(=O)[C@H](CCCNC(=N)N)NC(=O)[C@H](CCC(=O)O)NC(=O)[C@@H](NC(=O)[C@H](C)NC(=O)[C@@H]1CSSC[C@H](NC(=O)[C@H](CCCNC(=N)N)NC(=O)CC[C@H](NC(=O)CCCCCCCCCCCCCCCCCCC(=O)O)C(=O)O)C(=O)NCC(=O)N[C@@H]([C@@H](C)O)C(=O)N[C@@H](C)C(=O)N[C@@H]([C@@H](C)O)C(=O)N1)[C@@H](C)O | RP-HPLC | water | 7 days, pH 7.5, 40 °C |  | remaining main peak | 90 area % |
| C=CC(=O)Nc1cc(Nc2nccc(-c3cn(C)c4ccccc34)n2)c(OC)cc1N(C)CCNC | storage stability | human dried blood spot | 270 ng/mL, 24 h, -80 °C, HQC level |  | remaining amount | 99.2% |
| CC(C)(C)[Si](C)(C)Oc1ccc(COC(=O)NNc2ccccc2)cc1 |  | PBS | 12 h, 37 °C | relative to: initial amount | remaining fraction | 0.95 and 0.97 and 0.98 |
| CC[C@H](C)[C@@H](C(=O)N[C@@H](CC(C)C)C(=O)N[C@@H](CO)C(=O)N[C@@H](CO)C(=O)N[C@H](C(=O)N[C@@H](CCC(=O)O)C(=O)N[C@H](C(=O)NCC(=O)N[C@@H](CO)C(=O)NCC(=O)N[C@H](C(=O)N1C[C@H](O)C[C@H]1C(N)=O)[C@@H](C)O)C(C)C)[C@@H](C)O)N(C)C(=O)[C@H](C)NC(=O)CN(C)C(=O)[C@H](Cc1ccccc1)NC(=O)[C@H](CO)NC(=O)[C@H](CO)NC(=O)[C@H](CCCNC(=N)N)NC(=O)[C@H](CCC(N)=O)NC(=O)[C@H](CC(C)C)NC(=O)[C@H](Cc1ccccc1)NC(=O)[C@H](Cc1c[nH]cn1)NC(=O)[C@H](C)NC(=O)[C@H](CC(C)C)NC(=O)[C@H](CCCNC(=N)N)NC(=O)[C@H](CCC(N)=O)NC(=O)[C@@H](NC(=O)[C@H](C)NC(=O)[C@@H]1CSSC[C@H](NC(=O)[C@H](CCCNC(=N)N)NC(=O)CC[C@H](NC(=O)CCCCCCCCCCCCCCCCCCC(=O)O)C(=O)O)C(=O)N[C@@H](CC(N)=O)C(=O)N[C@@H]([C@@H](C)O)C(=O)N[C@@H](C)C(=O)N[C@@H]([C@@H](C)O)C(=O)N1)[C@@H](C)O | RP-HPLC | water | 7 days, pH 7.5, 40 °C |  | remaining main peak | 91 area % |
| N=C(N)NCCC[C@@H]1NC(=O)[C@H](CCCNC(=N)N)NC(=O)[C@@H](CCCNC(=N)N)NC(=O)[C@@H](CCCNC(=N)N)NC(=O)[C@@H](C(c2ccccc2)c2ccccc2)NC(=O)[C@H](Cc2c[nH]c3ccccc23)NC(=O)[C@@H](C(c2ccccc2)c2ccccc2)NC1=O | LC-MS | human plasma | 24 h |  | remaining peptide | 37.7% |
| CC[C@H](C)[C@@H](C(=O)N[C@@H](CC(C)C)C(=O)N[C@@H](CO)C(=O)N[C@@H](CO)C(=O)N[C@H](C(=O)N[C@@H](CCC(=O)O)C(=O)N[C@H](C(=O)NCC(=O)N[C@@H](CO)C(=O)N[C@@H](CO)C(=O)N[C@H](C(=O)N1CCC[C@H]1C(N)=O)[C@@H](C)O)C(C)C)[C@@H](C)O)N(C)C(=O)[C@H](C)NC(=O)CN(C)C(=O)[C@H](Cc1ccccc1)NC(=O)[C@H](CO)NC(=O)[C@H](CO)NC(=O)[C@H](CCCNC(=N)N)NC(=O)[C@H](CCC(N)=O)NC(=O)[C@H](CC(C)C)NC(=O)[C@H](Cc1ccccc1)NC(=O)[C@H](Cc1c[nH]cn1)NC(=O)[C@H](C)NC(=O)[C@H](CC(C)C)NC(=O)[C@H](CCCNC(=N)N)NC(=O)[C@H](CCC(=O)O)NC(=O)[C@@H](NC(=O)[C@H](C)NC(=O)[C@@H]1CSSC[C@H](NC(=O)[C@H](CCCNC(=N)N)NC(=O)CC[C@H](NC(=O)CCCCCCCCCCCCCCCCCCC(=O)O)C(=O)O)C(=O)NCC(=O)N[C@@H]([C@@H](C)O)C(=O)N[C@@H](C)C(=O)N[C@@H]([C@@H](C)O)C(=O)N1)[C@@H](C)O | RP-HPLC | water | 7 days, pH 7.5, 40 °C |  | remaining main peak | 71 area % |
| O=C(NC1CCC(F)(F)CC1)C(c1cncnc1)N(C(=O)C(F)Cl)c1ccc(-c2cncs2)cc1 (centres unmarked) |  | mouse liver microsomes | concentration not given, 1 h, pH 7.4 |  | remaining compound | 31% |
| C#Cc1c(F)ccc2cc(O)cc(-c3ncc4c(N5CC6CCC(C5)N6C(=O)OC(C)OC(=O)CC[C@@H](C)[C@H]5CC[C@H]6[C@@H]7CC[C@@H]8C[C@H](O)CC[C@]8(C)[C@H]7C[C@H](O)[C@]56C)nc(OC[C@@]56CCCN5C[C@H](F)C6)nc4c3F)c12 (some centres unmarked) |  | simulated gastric fluid | 1 µM, 30 min, 37 °C |  | remaining prodrug | 100% |
| CC[C@H](C)[C@@H](C(=O)N[C@@H](CC(C)C)C(=O)N[C@@H](CO)C(=O)N[C@@H](CO)C(=O)N[C@H](C(=O)N[C@@H](CCC(=O)O)C(=O)N[C@H](C(=O)NCC(=O)N[C@@H](CO)C(=O)N[C@@H](CC(N)=O)C(=O)N[C@H](C(=O)N1C[C@H](O)C[C@H]1C(N)=O)[C@@H](C)O)C(C)C)[C@@H](C)O)N(C)C(=O)[C@H](C)NC(=O)CN(C)C(=O)[C@H](Cc1ccccc1)NC(=O)[C@H](CO)NC(=O)[C@H](CO)NC(=O)[C@H](CCCNC(=N)N)NC(=O)[C@H](CCC(N)=O)NC(=O)[C@H](CC(C)C)NC(=O)[C@H](Cc1ccccc1)NC(=O)[C@H](CCCC(=O)O)NC(=O)[C@H](C)NC(=O)[C@H](CC(C)C)NC(=O)[C@H](CCCNC(=N)N)NC(=O)[C@H](CCC(=O)O)NC(=O)[C@@H](NC(=O)[C@H](C)NC(=O)[C@@H]1CSSC[C@H](NC(=O)[C@H](CCCNC(=N)N)NC(=O)CC[C@H](NC(=O)CCCCCCCCCCCCCCCCCCC(=O)O)C(=O)O)C(=O)NCC(=O)N[C@@H]([C@@H](C)O)C(=O)N[C@@H](C)C(=O)N[C@@H]([C@@H](C)O)C(=O)N1)[C@@H](C)O | RP-HPLC | water | 7 days, pH 6.0, 40 °C |  | remaining main peak | 97 area % |
| CC[C@H](C)[C@H](NC(=O)[C@H](Cc1ccccc1)NC(=O)[C@H](CCC(=O)O)NC(=O)[C@H](CCCCN)NC(=O)[C@H](C)NC(=O)[C@H](C)NC(=O)[C@H](CCC(N)=O)NC(=O)CNC(=O)[C@H](CCC(=O)O)NC(=O)[C@H](CC(C)C)NC(=O)[C@H](Cc1ccc(O)cc1)NC(=O)[C@H](CO)NC(=O)[C@H](CO)NC(=O)[C@@H](NC(=O)[C@H](CC(=O)O)NC(=O)[C@H](CO)NC(=O)[C@@H](NC(=O)[C@H](Cc1ccccc1)NC(=O)[C@@H](NC(=O)CNC(=O)[C@H](CCC(=O)O)NC(=O)[C@H](C)NC(=O)[C@@H](N)Cc1c[nH]cn1)[C@@H](C)O)[C@@H](C)O)C(C)C)C(=O)N[C@@H](C)C(=O)N[C@@H](Cc1c[nH]c2ccccc12)C(=O)N[C@@H](CC(C)C)C(=O)N[C@H](C(=O)N[C@@H](CCCNC(=N)N)C(=O)NCC(=O)N[C@@H](CCCNC(=N)N)C(=O)NCC(=O)O)C(C)C | HPLC-UV | Tris-HCl buffer | 0.1 mmol/l, 4 h, pH 7.4, 37 °C |  | remaining peptide | < 5% |
| C[C@](C(=O)NC1CCC(F)(F)CC1)(c1cncnc1)N(C(=O)[C@H](F)Cl)c1ccc(OC(F)(F)F)cc1 |  | human liver microsomes | concentration not given, 1 h, pH 7.4 |  | remaining compound | 4% |
| CSCC[C@@H](N)C(=O)N[C@@H](CC(C)C)C(=O)N[C@@H](CCCNC(=N)N)C(=O)N[C@@H](Cc1c[nH]c2ccccc12)C(=O)N[C@@H](CO)C(=O)N[C@@H](CCCNC(=N)N)C(=O)N[C@@H](CCCCN)C(=O)N[C@@H](CCSC)C(=O)N1CCC[C@H]1C(=O)N[C@@H](CS)C(=O)N[C@H](C(=O)N[C@@H](CO)C(=O)O)C(C)C | 12G5 competition, SUP-T1 cells | human plasma | concentration not given, 2 h |  | remaining activity | 68 ± 8% |

Some of these lines once more:
| SMILES | test | system | setting | how to read | endpoint | value |
| --- | --- | --- | --- | --- | --- | --- |
| CC(C)(C)[C@H](NC(=O)c1ccc(Oc2ccc(C(=O)N[C@H]3CCCC[C@@H]3O)cc2)cc1)C(=O)NCCN1CCCC1 |  | human liver microsomes | 1 µM, 30 min, pH 7.4 |  | remaining compound | 86.2% |
